# Experimental data collected from several papers.
Compound,system,setting,Tmax
NC(COc1ccccc1C(F)(F)F)c1ccccc1 (stereo not shown),"male Sprague-Dawley rat, serum","intravenous, 5 mg/kg",10.2 min
Cc1ccc(OCC(=O)N(Cc2cccs2)c2ccn[nH]2)cc1,"male Sprague-Dawley rat, plasma","intravenous, 1 mg/kg, single dose",1.8 min
COc1cc2ncnc(Oc3ccc(Nc4nccc5[nH]cc(-c6ccc(F)cc6)c(=O)c45)cc3F)c2cc1OC,"male Sprague-Dawley rat, plasma","intravenous, 5 mg/kg",1.8 min
Cc1cc(/C=C2\CN(C(C)C)C/C(=C\c3cc(C)c(O)c(C)c3)C2=O)cc(C)c1O,"female Sprague-Dawley rat, plasma","intravenous, 20 mg/kg",3 min
Cc1cc(/C=C/C#N)cc(C)c1Oc1nc(NC2CCN(Cc3ccc(P(C)(C)=O)cc3)CC2)nc2ccsc12,"male Sprague-Dawley rat, plasma","intravenous, 2 mg/kg",0 min
CC(C)(C)C(=O)Nc1ccc2[nH]c(CN3CCC(N(CCCN4CCOCC4)CC4OC(n5cnc6c(N)ncnc65)C(O)C4O)CC3)nc2c1 (stereo not shown),"male Sprague-Dawley rat, plasma","intravenous, 20 mg/kg",4.98 min
CC12CC3CC(C)(C1)CC(NC(=O)Nc1ccc(C(=O)N4CCC[C@H](C(N)=O)C4)cc1F)(C3)C2,"Sprague-Dawley rat, plasma","oral, 50 mg/kg",38 min
NC(=O)c1cccnc1.O.O=c1[nH]cc(F)c(=O)[nH]1.O=c1[nH]cc(F)c(=O)[nH]1.O=c1[nH]cc(F)c(=O)[nH]1,"rat, plasma","oral, 0.06 mmol/kg",15 min
CCCN(c1ccc(C(=O)NCCC(=O)O)cc1)S(=O)(=O)c1cc(C)c(-c2ccc(C(C)(C)C)cc2)c(C)c1,"rat, plasma","oral, 5 mg/kg",80 min
CC12CC3CC(C)(C1)CC(NC(=O)Nc1ccc(C(=O)N4CCCC(C(N)=O)C4)cc1)(C3)C2 (stereo not shown),"Sprague-Dawley rat, plasma","oral, 10 mg/kg",126 min
CCCC[C@H](NC(=O)[C@H](CC(C)C)N(C)C(=O)CNC(=O)[C@@H](NC(=O)[C@H](Cc1ccccc1)NC(=O)[C@H](CCCCN)NC(=O)[C@@H](N)CC(=O)O)C(C)C)C(N)=O,"female rat, plasma","subcutaneous, 300 µg/kg",3 min
N#Cc1cnc2cc(OCC3CCNCC3)c(F)cc2c1Nc1cc(F)c(OCc2cccc(Cl)n2)cc1Cl,"male Sprague-Dawley rat, plasma","oral, 100 mg/kg",180 min
CC1(C)CNC(=O)c2ccccc21,"rat, plasma","oral, 5 mg/kg, single dose",30 min
C#Cc1cccc(Nc2ncnc3cc(OC)c(OCCCN4CCOCC4)cc23)c1,"Sprague-Dawley rat, plasma","oral, 40 mg/kg",140 min
C[Si]1(C[C@@H](CN)CC(=O)O)CCCC1,"male Sprague-Dawley rat, plasma","oral, 100 mg/kg, single dose",60 min
CCOC(=O)c1cc2c(N)c(C(=O)OC)sc2nc1C,"male Sprague-Dawley rat, plasma","subcutaneous, 100 mg/kg",45 min
CC1(C)CC[C@]2(C(=O)O[C@@H]3O[C@H](CO[C@@H]4O[C@H](CO)[C@@H](O)[C@H](O)[C@H]4O)[C@@H](O)[C@H](O)[C@H]3O)CC[C@]3(C)C(=CC[C@@H]4[C@@]5(C)CC[C@H](O[C@@H]6OC[C@H](O)[C@H](O)[C@H]6O)[C@@](C)(CO)[C@@H]5CC[C@]43C)[C@@H]2C1,"Sprague-Dawley rat, plasma","oral, 150 mg/kg",25.2 min
Cn1cc(-c2cc(N3CCCCS3(=O)=O)ccc2N[C@H]2CC[C@H](C)CC2)c2cc[nH]c2c1=O (stereo in doubt),"Sprague-Dawley rat, plasma","oral, 3 mg/kg",30 min
C[Si](C)(C)C[C@@H](CN)CC(=O)O,"male Sprague-Dawley rat, plasma","oral, 30 mg/kg, single dose",60 min
